# Published values from different studies.
# Compare with care: the assays were run in different laboratories.
# Target: Casein kinase I isoform gamma-2 (CSNK1G2, Homo sapiens, UniProt P78368)
# Sequence of UniProt P78368 (whole entry, looked up): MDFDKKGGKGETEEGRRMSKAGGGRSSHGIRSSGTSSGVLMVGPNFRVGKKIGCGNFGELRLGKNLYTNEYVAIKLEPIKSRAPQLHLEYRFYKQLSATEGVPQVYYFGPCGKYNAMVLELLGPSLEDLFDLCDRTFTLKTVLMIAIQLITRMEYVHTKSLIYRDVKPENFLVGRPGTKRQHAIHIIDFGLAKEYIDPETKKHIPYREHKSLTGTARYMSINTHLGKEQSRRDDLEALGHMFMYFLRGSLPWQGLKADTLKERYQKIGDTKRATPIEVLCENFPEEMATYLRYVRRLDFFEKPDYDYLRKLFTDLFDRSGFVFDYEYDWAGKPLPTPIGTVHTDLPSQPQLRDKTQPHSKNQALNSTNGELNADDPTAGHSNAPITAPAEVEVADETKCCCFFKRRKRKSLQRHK
Compound,assay,setting,how to read,quantity,result
Nc1ccc(/C=C/C(=O)N2CCc3c(oc4c(-c5ccc(F)cc5)cc(-c5ccc(C(=O)N6CCC(F)(F)CC6)cn5)cc34)C2)cn1,"binding, competition with immobilised ligand",1 µM,,remaining binding,100%
CCOC(=O)[C@@H]1Cc2c(cc([N+](=O)[O-])cc2[N+](=O)[O-])[C@H](O)[C@]12C(=O)Nc1ccc(Br)cc12,KINOMEscan,100 nM,relative to: DMSO control,remaining binding,91%
CS(C)(=O)=Nc1ccc(-c2ccc(-c3nc4cc(O[C@@H]5CO[C@H]6[C@@H]5OC[C@H]6O)[nH]c4cc3F)cc2)cc1,"enzyme activity, inhibitor",10 µM,,inhibition,6%
CN(C)[C@H]1C[C@@]23CC[C@@]4(O2)C(=CC[C@]2(C)[C@@H](c5ccc6ccncc6c5)CC[C@H]24)C=C3[C@@H](O)[C@@H]1O,"ATP probe labelling, inhibitor, KiNativ profiling",1 µM,,inhibition,-3.5%
CC(C)[C@H]1NC(=O)C[C@H]2/C=C/CCSSC[C@@H](NC1=O)C(=O)N[C@H](Cc1cccc3ccccc13)C(=O)NCC(=O)O2,"enzyme activity, inhibitor",10 µM,,inhibition,0%
O=C1NC(=O)c2c1c1cc(F)c[n+]3c1c1c2c2cc(O)ccc2[n]1[Ru-4]312([N]=C=S)[S+]3CC[S+]1CC[S+]2CC3 (centres unmarked),enzyme activity,"100 nM, human enzyme, with: 10 µM ATP",relative to: untreated,remaining activity,-3%
O=C(CN1CN(c2ccccc2)C2(CCN(C(=O)c3cnc4[nH]ncc4c3)CC2)C1=O)NCC(F)(F)F,inhibitor,concentration not given,,inhibition,< 50%
C[C@H](NCc1ccc(-c2ccc(C(F)(F)F)cc2)cc1)C(N)=O,"cell-free assay, competition with immobilised ligand",1 µM,,inhibition,2%

# Repeated from above:
Compound,assay,setting,how to read,quantity,result
CS(C)(=O)=Nc1ccc(-c2ccc(-c3nc4cc(O[C@@H]5CO[C@H]6[C@@H]5OC[C@H]6O)[nH]c4cc3F)cc2)cc1,"enzyme activity, inhibitor",10 µM,,inhibition,6%
